Assay results pooled from the literature.
Compare with care: the assays were run in different laboratories. Values joined by “and” are separate records of one study, mostly repeats; a detail may differ. Numbers after ± are the reported error.

Cc1noc(C)c1Cn1cc(N2C(=O)CN(Cc3cccc(OS(=O)(=O)O)c3)C2=O)cn1 — plasma concentration (Sprague-Dawley rat, male; oral, 10 mg/kg of parent drug, 1 h): 2400 ng/mL
OC1(C(F)(F)F)CCN(c2nc(Nc3ccnc(C(F)(F)F)c3)nc(-c3cccc(C(F)(F)F)n3)n2)C1 (stereo not shown) — absolute bioavailability (monkey, both sexes, plasma; oral, 3 mg/kg): 114%
O=C(Nc1cnccc1-c1ccc([18F])cc1)c1ccnc(NC(=O)C2CC2)c1 — SUV (mice, transgenic, GSK-3β, early-stage, heart; intravenous, dose not given, 120 min, with: tariquidar 15 mg/kg i.v. pre-dose): 0.31
CC(C)C[C@H](NC(=O)[C@H](CCCCN)NC(=O)C1CCCC=CCCC(NC(=O)[C@H](CCCCN)NC(=O)[C@@H](N)CC(C)C)C(=O)N[C@@H](CCCCN)C(=O)NC2CCC=CCCCC(NC(=O)[C@H](CCCCN)NC(=O)CNC(=O)[C@H]3CCCN3C(=O)[C@H](CCCCN)NC2=O)C(=O)N[C@@H](CCCCN)C(=O)N1)C(N)=O (stereo partly shown) — retention time (RP-HPLC C18; hydrophobicity): 14.2 min
O=c1[nH]c2ccccc2c(=O)n1O — logD (shake flask; aqueous buffer; pH 7.4): 0.05
O=C(Nc1cnccc1-c1ccc([18F])nc1)c1ccnc(NC(=O)C2CC2)c1 — SUV (ex vivo gamma counting; GSK-3β transgenic mice, early-stage, cerebellum; intravenous, 120 min, mean, P-gp inhibitor pretreatment, with: tariquidar 15 mg/kg iv): 0.069
CC(C)(O)c1ncc([S@](N)(=O)=NC(=O)Nc2c3c(cc4c2CCC4)CCC3)s1 — subjects with adverse events (measured: Gastrointestinal disorders; healthy human volunteers; oral, dose not given, single dose, all active arms): 17%
CN1CCC[C@]1(C)/C=C/S(=O)(=O)NC(=O)Nc1c2c(cc3c1CCC3)CCC2 — subjects with adverse event (measured: laboratory investigations; human; oral, 50 mg twice daily, 14 days, multiple ascending dose): 16.7%
C=CC(=O)Nc1cc(Nc2nccc(-c3c[nH]c4ccccc34)n2)c(OC)cc1N(C)CCN(C)C — recovery (storage stability; human dried blood spot; 30 d, -80 °C, MQC level): 92.3%
C=C(NC(=O)c1csc(-c2nc3c(cc2O)-c2nc(cs2)C(=O)NC(C(C)O)C(=O)NC(=C(C)OC)c2nc(cs2)C(=O)NC2c4nc(cs4)C(=O)NC(COC(=O)c4c5c6c(cccc6n4O)COC(=O)C(OC4CC(C)(O)C(N(C)C)C(C)O4)C2OC5)c2nc-3cs2)n1)C(N)=O (stereo not shown) — half-life (ICR mice, Streptococcus pneumoniae ATCC 49169 infected, immunocompromised, blood; intravenous, 16 mg/kg/day three times daily): 2.53 h
CC(C(=O)O)n1nc(Cn2cc3cc(OCC[18F])c(Cl)cc3n2)c2ccccc2c1=O (racemic) — tracer uptake (rat, spleen; 30 min): 0.18 %ID/g
Cc1nn(-c2nc3c(F)cc(F)cc3s2)c(O)c1C(c1ccc(C(F)(F)F)cc1)c1c(C)nn(-c2nc3c(F)cc(F)cc3s2)c1O — Clast (ICR mouse, plasma; intravenous, 5 mg/kg): 253 ng/mL and 272 ng/mL and 1770 ng/mL
O=C([O-])CN1CCN(CC(=O)[O-])CCN(CC(O)CN(CC(O)CN2CCN(CC(=O)[O-])CCN(CC(=O)[O-])CCN(CC(=O)[O-])CC2)C[C@H](O)[C@@H](O)[C@H](O)[C@H](O)CO)CCN(CC(=O)[O-])CC1.[Gd+3] (stereo partly shown) — log K (pH-potentiometry, measured: Gd(HL)M, M = Ca2+; 25 °C, 0.15 M NaCl): 6.15
O=C(c1ccccc1)N1C(c2ccc(OCC3CCN(CCCF)C3)cc2)c2ccc(O)cc2CC12CC2 (stereo not shown) — AUC(0-t) (C57BL/6J mouse, plasma; intraperitoneal, 25 mg/kg, group mean): 8320 ng·h/mL
CC(C)[C@H](NC(=O)[C@H](Cc1c[nH]c2ccccc12)NC(=O)[C@H](CCCNC(=N)N)NC(=O)[C@H](CCCNC(=N)N)NC(=O)[C@@H](NC(=O)[C@@H](NC(=O)[C@H](CCCNC(=N)N)NC(=O)[C@@H](NC(=O)[C@@H](NC(=O)[C@H](CCCNC(=N)N)NC(=O)[C@H](CCCNC(=N)N)NC(=O)[C@@H](NC(=O)[C@H](Cc1c[nH]c2ccccc12)NC(=O)[C@H](CCCNC(=N)N)NC(=O)[C@H](CCCNC(=N)N)NC(=O)[C@@H](NC(=O)[C@H](CCCNC(=N)N)NC(=O)[C@H](CCCNC(=N)N)NC(=O)[C@@H](NC(=O)[C@H](Cc1c[nH]c2ccccc12)NC(=O)[C@H](CCCNC(=N)N)NC(=O)[C@@H](N)CCCNC(=N)N)C(C)C)C(C)C)C(C)C)C(C)C)C(C)C)C(C)C)C(C)C)C(=O)N[C@@H](CCCNC(=N)N)C(=O)N[C@@H](CCCNC(=N)N)C(=O)O — creatinine excretion (CD1 mouse, urine; intravenous, 15 mg/kg, 6 h, [14C]-labelled compound): 5.6 µg/day/g body weight
CCCC[C@H](NC(=O)CNC(=O)CNC(=O)[C@H](CCCCNC(=O)[C@H](CC(=O)O)NC(=O)C(C)c1ccc(CC(C)C)cc1)NC(=O)CN1CCN(CC(=O)O)CCN(CC(=O)O)CCN(CC(=O)O)CC1)C(=O)N[C@H]1CC(=O)NCCCC[C@@H](C(N)=O)NC(=O)[C@H](Cc2c[nH]c3ccccc23)NC(=O)[C@H](CCCNC(=N)N)NC(=O)[C@@H](Cc2ccccc2)NC(=O)[C@H](Cc2c[nH]cn2)NC1=O (stereo partly shown) [lutetium-177 labelled] — tumour-to-tissue ratio (C57 mice, tumour; intravenous, 0.037 MBq, 24 h; relative to: lung): 28.4
CN(O)C(=O)CCC(=O)NCCCN(CCCCN(CCCNC(=O)CCC(=O)N(C)O)C(=O)CCC(=O)N(C)O)C(=O)CCC(=O)N(C)O.[89Zr] — intact complex (radio-TLC; aqueous buffer; 7 d, pH 5, 37 °C, 89Zr-labelled complex, with: DTPA 1000-fold excess): 80.8 ± 1.8%
CN(C)S(=O)(=O)c1ccc(S(=O)(=O)N2CCC(n3c(=O)[nH]c4ccccc43)CC2)cc1 — relative body weight (mouse; dose not given, day 6; relative to: day 0): 100% and 106%
Cc1c(Cc2cc(F)cc(OC(C)(C)C(=O)O)c2)c2ccc(C(=O)N[C@@H](C)c3cc(F)cc(C(C)(C)C)c3)cc2n1CC1CCC1 — half-life (mouse liver microsomes; 1 µM, with: microsomes 1 mg/mL): 0.283 h
N#C[C@@H]1CC(F)(F)CN1C(=O)CNC(=O)c1ccnc2c(NC(=O)[C@H](CCCCNC(=O)CCOCCOCCOCCOCCOCCOCCNC(=O)CN3CCN(CC(=O)[O-])CCN(CC(=O)[O-])CCN(CC(=O)[O-])CC3)NC(=O)CCCc3ccc(I)cc3)cccc12.[177Lu+3] — tissue uptake (mouse, U-87 MG tumour xenograft, brain; 4 h): 0.22 ± 0.25 %ID/g
Cc1nc(N)nc2c1C(=O)N[C@@H](c1ccc(F)cc1-c1cccc(O[11CH3])n1)C2 — tracer uptake (ex vivo biodistribution; mice, MDA-MB-231 subcutaneous xenograft, liver; 60 min post-injection, baseline, vehicle pre-treatment): 12.6 ± 0.9 %ID
CNc1cc(N)c(C(N)=O)cn1 — concentration at time (Han Wistar rats, male, plasma; oral, 30 mg/kg, 3.00 h): 8.01 µM
O=S(=O)(NCc1ccncc1)c1ccc(C2CCCCC2)cc1 — body weight change (wild-type littermate mouse; 0.3 mg/kg; relative to: vehicle): 2 ± 1 g
CN1CCC[C@]1(C)/C=C/S(=O)(=O)NC(=O)Nc1c2c(cc3c1CCC3)CC=C2 — Cmax at second steady-state dose (human, plasma; oral, 12.5 mg twice daily of parent drug, day 14, metabolite of dosed drug): 6500 ng/mL
CCn1nc(Cl)c2c1-c1cnc(N)c(c1)O[C@H](C)c1cc(F)ccc1-c1nn(C)cc1C2 — free plasma concentration (mouse, plasma; oral, 10 mg/kg, 1 h, 1 doses): 0.027 ± 0.0027 µM
CC[C@H](C)[C@H](NC(=O)[C@H](CC(N)=O)NC(=O)[C@@H](N)CCSC)C(=O)N[C@@H](CCSC)C(=O)N[C@@H](CC(=O)O)C(=O)N[C@@H](Cc1ccccc1)C(=O)N[C@@H](CC(N)=O)C(=O)N[C@H](C(=O)N[C@@H](CCCCN)C(=O)N[C@@H](CCCCN)C(=O)N[C@@H](CC(C)C)C(=O)N[C@@H](C)C(=O)N[C@@H](C)C(=O)N[C@@H](CC(=O)O)C(=O)N[C@@H](C)C(=O)NCC(=O)N[C@H](C(=O)N[C@@H](Cc1c[nH]c2ccccc12)C(=O)N[C@@H](CC(C)C)C(=O)N[C@@H](CO)C(=O)N[C@@H](CCCNC(=N)N)C(=O)N[C@@H](C)C(=O)N[C@H](C(=O)N[C@@H](CCC(N)=O)C(=O)N[C@@H](Cc1ccccc1)C(=O)N[C@H](C(=O)N[C@@H](CCC(=O)O)C(=O)N[C@@H](CCC(=O)O)C(=O)N[C@@H](CCCCN)C(=O)N[C@@H](CC(C)C)C(=O)NCC(=O)N[C@@H](CCC(N)=O)C(=O)N[C@@H](C)C(N)=O)[C@@H](C)O)C(C)C)[C@@H](C)O)C(C)C — ΔG of binding (circular dichroism titration; 100% DOPS liposomes; 50 µM, pH 7.4, 20 °C): -7.9 kcal/mol
C=CC(=O)Nc1cc(Nc2nccc(-c3cn(C)c4ccccc34)n2)c(OC)cc1N(C)CCNC — recovery (storage stability; human plasma; 24 h, -80 °C, LLOQ level): 91%
CCc1cnc(NC(=O)c2cc(S(=O)(=O)N3CCOCC3)ccc2N(C)C2CCCC2)s1 — Potassium (mouse, serum; 10 mg/kg, 3 doses): 9.2 mEq/L
C=CC(=O)N1CCCC(n2c(=O)c3ncccc3n(Cc3ccc(Oc4ccccc4)cc3)c2=O)C1 (stereo not shown) — compound remaining (metabolic stability; male CD-1 mouse, hepatocytes; 1 µM, 1 h): 0.9%
O=C(O)CN1CCN(Cc2cccc(C(=O)O)n2)CCN(CP(=O)(O)O)CC1 — log Ka (potentiometric titration; first phosphonate deprotonation): < 2
CC(C)c1cc(C(=O)NCCN(C)C)c2cnn(C(C)C)c2n1 — microsomal CLint (metabolic stability; mouse, liver microsomes): 116 µL/min/mg
COc1cccc(OC)c1-c1cc(C(=O)NC2(C(=O)O)C3CC4CC(C3)CC2C4)nn1-c1ccc(C(=O)N(C)CCCN(C)C(=O)[C@H](CCCCNC(=O)[C@H](CC(C)C)NC(=O)C2OC2C(=O)O)NC(=O)CN2CCN(CC(=O)[O-])CCN(CC(=O)[O-])CCN(CC(=O)[O-])CC2)cc1C(C)C.[177Lu+3] (mixture of isomers) — tissue uptake (mouse, HT-29 xenograft, brain; 4 h post injection): 0.05 %ID/g
CCCCN1C(=O)c2cccc3c(NCCCCCCN4CCOCC4)ccc(c23)C1=O — fluorescence lifetime (DMF): 10.3 ns
Fc1cccc(-n2cc(-c3ccccc3)nc2NCc2ccc(C(F)(F)F)c(F)c2)c1 — AUC(0-last) (CD-1 mice, male, intestine; intraperitoneal, 25 mg/kg, single dose): 173000 ng·h/mL
CC[C@H](C)[C@H](NC(=O)[C@H](CCC(N)=O)NC(=O)[C@H](CC(C)C)NC(=O)[C@H](CC(N)=O)NC(=O)[C@H](Cc1c[nH]cn1)NC(=O)[C@H](CCCCN)NC(=O)[C@@H](NC(=O)[C@@H](N)C(C)C)[C@@H](C)O)C(=O)N[C@@H](COP(=O)(O)O)C(=O)N[C@@H](CCC(N)=O)C(=O)N[C@@H](COP(=O)(O)O)C(=O)N[C@@H](Cc1ccc(O)cc1)C(=O)O — compound remaining (metabolic stability, mass spectrometry; mouse, liver microsomes; 1 h): ≥ 95%
COc1ccnc(C(=O)N[C@H]2COC(=O)[C@H](Cc3ccccc3)[C@@H](OC(=O)C(C)C)[C@H](C)OC2=O)c1O — KFoc (soil adsorption; tested soils; geometric mean): 4520 mL/g
C/C(N)=N/C(=N\S(=O)(=O)c1ccc(C(F)(F)F)cc1)N1C[C@H](c2ccccc2)C(c2ccc(Cl)cc2)=N1 — half-life (male C57BL/6 mouse, lung; oral, 10 mg/kg): 3.1 h
COc1ccc(Nc2nc(Nc3ccc(OCCOCC[18F])cc3)ncc2Br)cc1 — uptake ratio (ICR mice, S180 tumour; intravenous, 370 kBq, 120 min; relative to: tumour over bone): 0.86
COc1ccc2c(c1)CCn1c[n+]3c(c1-2)-c1ccc(OC)cc1CC3 — Eosinophils (female NSG mice, blood; 6 mg/kg, day 7, 5 days per week): 11.6 ± 9.17%
COCC1CN(C2CCN(c3cc(OC)c(Nc4ncc(Br)c(Nc5ccc6c(c5P(C)(C)=O)OCCO6)n4)cc3C)CC2)C1 — Cmax at steady state (EGFR-mutant NSCLC patients, plasma; oral, 10 mg multiple doses, geometric mean): 37.8 ng/mL
C#CCOCCOCCOCCOCCn1cc(C(ONC(=O)/C=C/C(C)=C/C2(C)Oc3cc(N(C)C)ccc3C2=O)(c2ccc(C)cc2)c2ccc(C)cc2)nn1 (stereo not shown) — release from prodrug hydrolysis (HPLC; aqueous buffer, 20% acetonitrile; concentration not given, 164 min, pH 3; relative to: initial prodrug amount): 58%
CC[C@H](C)[C@@H]1NC(=O)[C@H](Cc2ccc(O)cc2)NC(=O)CCCSC[C@@H](C(=O)N(CC(=O)N[C@@H](CC(C)C)C(=O)NCC(N)=O)Cc2ccc(F)cc2)NC(=O)[C@H](CC(N)=O)NC(=O)[C@H](CCC(N)=O)NC1=O — AUC(0-inf) (healthy women, plasma; intranasal, 300 µg single dose): 0.142 ng·h/mL
CN1CCCNC(=O)c2cccc(c2)C(=O)NCCCN(C)CCCNc2cccc3c2C(=O)c2cccc(c2C3=O)NCCC1 — body weight (mouse xenograft model; dose not given, day 8): 25 g and 28 g and 26 g

Some of these lines once more:
COc1ccnc(C(=O)N[C@H]2COC(=O)[C@H](Cc3ccccc3)[C@@H](OC(=O)C(C)C)[C@H](C)OC2=O)c1O — KFoc (soil adsorption; tested soils; geometric mean): 4520 mL/g
C/C(N)=N/C(=N\S(=O)(=O)c1ccc(C(F)(F)F)cc1)N1C[C@H](c2ccccc2)C(c2ccc(Cl)cc2)=N1 — half-life (male C57BL/6 mouse, lung; oral, 10 mg/kg): 3.1 h
COc1ccc(Nc2nc(Nc3ccc(OCCOCC[18F])cc3)ncc2Br)cc1 — uptake ratio (ICR mice, S180 tumour; intravenous, 370 kBq, 120 min; relative to: tumour over bone): 0.86
